Measurements from different studies.
Protocols differ between the studies behind these lines. Values joined by “and” are separate records of one study, mostly repeats; a detail may differ. Numbers after ± are the reported error.

With `COc1cc(N(C)CCN(C)C)c(NC(=O)/C=C/c2ccc(S(C)(=O)=O)cc2)cc1Nc1nccc(-c2cn(C)c3ccccc23)n1` the inhibition was 64.3% (NCI-H1975; cell growth or viability, MTT; 0.5 µM, 72 h).
For `COc1ccc(NC(=O)c2c(Nc3ccccc3)sc(C(=O)N/N=C/c3ccc(OC)c(OC)c3)c2NC(C)=O)cc1`, the viability was 53.2% (HepG2; cell growth or viability, SRB; 10 µM, 48 h).
`Cc1cc(-c2ccc(NC(=O)CC[C@H](NC(=O)CN3CCN(CC(=O)O)CCN(CC(=O)O)CCN(CC(=O)O)CC3)C(=O)NCC(=O)N[C@@H](CC(N)=O)C(=O)N[C@H](C(=O)N[C@H](C(=O)N[C@@H](CCCNC(=N)N)C(=O)N[C@@H](CCC(N)=O)C(=O)O)C(C)C)C(C)C)c(C)c2)ccc1/N=N/c1ccc2c(S(=O)(=O)O)cc(S(=O)(=O)O)c(N)c2c1O` [copper-64 labelled] gave a cellular uptake of 1.45 ± 0.17% (143B osteosarcoma; gamma counting; 45 min, 37 °C, 0.74 MBq, radiolabelled; baseline: added activity per well).
With `COc1ccc2c(c1)C(n1nnc3ccccc31)C1=C(CCCC1=O)O2` (stereo not shown) the lipid content was 0.816 OD492 and 0.761 OD492 and 0.741 OD492 (3T3-L1 preadipocytes; adipogenesis, Oil Red O staining; IC20, 14 days, single replicate).
`CNS(=O)(=O)Nc1nccc(Cc2c(C)c3ccc(Oc4ncccc4F)cc3oc2=O)c1F` has an IC50 of 83.7 nM (NCI-H1915; cell viability; 7 days).
The IC50 of `CN(C)C(=O)c1cccc(N2Cc3cnn(Cc4ccc(F)cc4)c3C2)c1` is reported as 90 nM (HEK293 expressing GluA1 and GluA2; glutamate excitotoxic cell death, CellTox Green; added: glutamate).
`COc1ccccc1-c1ccncc1C(=O)Nc1nnc(OCc2ccc(Cl)cc2)s1` has a colony count of 68.5 and 79 and 80.5 (DLD-1 parental; 0.5 µM, mean of replicates).
`O=C(C[Se]C(=O)c1cc2ccccc2o1)Nc1cccc(C(F)(F)F)c1` gave a mean TGI of 4710 nM (NCI60 leukaemia subpanel; NCI60 five-dose screen).
The colony survival of `COc1ccccc1-c1ccncc1C(=O)Nc1ccc(OCc2ccc(Cl)cc2)nn1` is reported as 98.2% (DLD-1 parental (BRCA2 WT); 10 µM, average of 3 runs; baseline: untreated).
With `CN(C)C(=O)c1cccc(N2Cc3cn(Cc4ccc(F)cc4Cl)nc3C2)c1` the IC50 was 11 nM (HEK293 expressing GluA1 and GluA2; glutamate excitotoxic cell death, CellTox Green; added: glutamate).
For `C=CC(=O)Nc1cc(Nc2nccc(-c3c(-c4ccc(F)cc4)n(C)c4ccccc34)n2)c(OC)cc1N(C)CCN(C)C`, the inhibition was 64.4% (NCI-H1975; cell growth or viability, MTT; 0.5 µM, 72 h).
`Cc1ncsc1-c1ccc([C@H](C)NC(=O)[C@@H]2C[C@@H](O)CN2C(=O)[C@@H](NC(=O)[C@H]2C[C@H](C(=O)N3CCC(c4cc(Nc5cc(C#N)ccn5)nc(N5CCC(F)(F)C5)c4)CC3)C2)C(C)(C)C)cc1` — result for “protein level log2 fold change”: -0.0353 (CAL-33 with inducible wild-type LZK; MS proteomics, measured: RNASE7; 500 nM, 24 h, added: doxycycline; baseline: DMSO).
For `Cc1cc(Cl)cc(-c2ccnc3cc(CN4C(=O)C5C(C4=O)C5(C)C)sc23)c1C[C@@H]1CNCCO1` (stereo partly shown), “Annexin V-negative PI-positive cells” read 2.9% and 2.57% and 4.44% (CHP-212 parental; Annexin V-PI flow cytometry; 1 µM, 48 h; baseline: cells).
With `CCN(C(=O)c1cc(F)ccc1Oc1nncnc1N1CCC2(C1)CN([C@H](CCCN(C)CCOC)C(C)C)C2)C(C)C` the GI50 was > 10000 nM (OVCAR-3; cell growth or viability; 72 h).
The inhibition of `COc1ccc2cc(/C=C/C(=O)Nc3cc(Nc4nccc(-c5cn(C)c6ccccc56)n4)c(OC)cc3N(C)CCN(C)C)ccc2c1` is reported as 66.3% (NCI-H1975; cell growth or viability, MTT; 0.5 µM, 72 h).
`CCNc1cc2c(cc1C)C1(c3cc(C)c(NCC)cc3O2)c2ccccc2C(=O)N1N=Cc1c[c-]c(-c2ccccn2)cc1.Cc1c(C)c(-c2ccc(-c3ccccc3)cc2)[c-](C)c1C.[Cl-].[Ir+3]`: “G0/G1 phase cells” 54.9 ± 2.01% (A549; PI flow cytometry; 0.25 x IC50, 24 h).
For `Cc1c(Cl)cccc1Nc1ccccc1C(=O)[Se]CC(=O)Nc1cccc(C(F)(F)F)c1`, the mean TGI was 3050 nM (NCI60 melanoma subpanel; total growth inhibition, inhibitor; five-dose).
For `CCCC(CCC)C(=O)OCc1cn(-c2cc3ccccc3oc2=O)nn1`, the growth percentage was 103% (HCC 2998; NCI60 single-dose screen; 10 µM).
With `CCN(CC)CC(=O)Nc1cccc(-n2cc(-c3ccc4ccc(-c5cn(-c6cccc(NC(=O)CN(CC)CC)c6)nn5)cc4c3)nn2)c1` the fold regulation was 1.01 (RCC4; PCR angiogenesis array, measured: AKT1; 5 x IC50, 2 h, normoxia; baseline: untreated).
For `O=C(C[Se]C(=O)C12CC3CC(CC(C3)C1)C2)Nc1cccc(C(F)(F)F)c1`, the mean TGI was 5300 nM (NCI60 CNS subpanel; NCI60 five-dose screen).
With `Cc1cc(/N=N/c2ccc(/N=N/c3ccc(O)c(C(=O)O)c3)cc2)c(N)cc1N` the protein level was 50 to 70% (primary mouse articular chondrocytes; Western blot, measured: Phlpp1; 25 µM, days 0-6 and 0-9; baseline: vehicle).
Under “mean growth percent”, `COc1ccc2c(c1)c(CC(=O)[Se]CC(=O)Nc1cccc(C(F)(F)F)c1)c(C)n2C(=O)c1ccc(Cl)cc1` is recorded as -87% (NCI60 melanoma subpanel; cell growth; 10 µM, 48 h, one-dose).
`O=C(Nc1nnc2c1c(-c1ccc(Cl)cc1)nc1sc(=Cc3ccco3)c(=O)n12)c1ccccc1` (mixture of isomers) gave a cell growth of 54.1% (HCC 2998; SRB; 10 µM, NCI60 single-dose screen, colon cancer; baseline: untreated).
`O=C(C[Se]C(=O)c1ccccc1Nc1cccc(C(F)(F)F)c1)Nc1cccc(C(F)(F)F)c1` gave a GI50 of 1690 nM (NCI60 leukaemia subpanel; NCI60 five-dose screen).
For `C=CC(=O)Nc1cc(Nc2nccc(-c3c(-c4ccc(OC)c5ccccc45)n(C)c4ccccc34)n2)c(OC)cc1N(C)CCN(C)C`, the inhibition was 64.2% (NCI-H1975; cell growth or viability, MTT; 0.5 µM, 72 h).
Under “early apoptotic cells”, `COc1cc(N2CCN(C(=O)C3CCCN3)CC2)ccc1Nc1ncc(Cl)c(Nc2ccccc2P(C)(C)=O)n1` (stereo not shown) is recorded as 4.2% (Ba/F3 EML4-ALK; annexin V flow cytometry; concentration not given, 3 h).
The surface-bound fraction of `COc1cccc(OC)c1-c1cc(C(=O)NC2(C(=O)O)C3CC4CC(C3)CC2C4)nn1-c1ccc(C(=O)N(C)CCCN(C)C(=O)[C@H](CCCCNC(=O)[C@H](CC(C)C)NC(=O)C2OC2C(=O)O)NC(=O)CN2CCN(CC(=O)[O-])CCN(CC(=O)[O-])CCN(CC(=O)[O-])CC2)cc1C(C)C.[177Lu+3]` (mixture of isomers) is reported as 3.56 ± 0.46% (HT-29; concentration not given, 60 min; baseline: added activity).
The GI50 of `O=C(C[Se]C(=O)c1cc2ccccc2s1)Nc1cccc(C(F)(F)F)c1` is reported as 460 nM (HCC 2998; cell growth or viability, SRB).
`Cc1ncsc1-c1ccc(C(C)NC(=O)C2CC(O)CN2C(=O)C(NC(=O)CCCCCCCCCCN2CCCC(Nc3ncc(Cl)c(Nc4ccccc4S(=O)(=O)C(C)C)n3)C2)C(C)(C)C)cc1` (stereo not shown): “log2 fold change” -1.77 (22Rv1; RNA-seq, measured: PAPOLG mRNA; concentration not given; baseline: DMSO).
`NC(=O)c1ccc(-c2ccccc2Cl)c2c3c([nH]c12)CC[C@H](N)C3` has an IC50 of 44.9 nM (A549 parental; cell proliferation).
For `O=C(C[Se]C(=O)c1cccnc1Nc1cccc(C(F)(F)F)c1)Nc1cccc(C(F)(F)F)c1`, the GI50 was 1710 nM (NCI60 melanoma subpanel; cell growth, inhibitor; five-dose).
With `COc1cc(N(C)CCN(C)C)c(NC(=O)/C=C/c2cccc(F)c2)cc1Nc1nccc(-c2cn(C)c3ccccc23)n1` the inhibition was 68.3% (NCI-H1975; cell growth or viability, MTT; 0.5 µM, 72 h).
`N=C(N)NCCC[C@@H](NC(=O)[C@H](Cc1ccccc1)NC(=O)[C@H](Cc1ccccc1)NC(=O)[C@@H](CCCNC(=N)N)NC(=O)CCCC[C@@H]1SC[C@@H]2NC(=O)N[C@@H]21)C(N)=O` — result for “mitochondrial membrane potential”: ~3 fold (MDBK; MitoTracker Red CMXRos; 1 µM, serum-free medium; baseline: untreated cells).
The viability of `CCOC(=O)c1ccc(-n2c(N)c(C#N)c(SC)c(C#N)c2=O)cc1` is reported as 42.7% (HepG2; cell growth or viability, MTT; 50 µM, 24 h).
`COC(=O)c1cc(NC2=NC(=O)C(=Cc3ccc(C)cc3)S2)ccc1OC(C)=O` has a metabolite level of -0.01 fold change (MCF7; GC-MS, measured: 1,3-propanediol; 1 µM; baseline: DMSO).
`CN(C)CCN1CCN(c2ccc3nc(-c4ccc5nc(-c6ccc(C(F)(F)F)cc6)[nH]c5c4)[nH]c3c2)CC1` gave a growth percent of 75.8% (HOP-92; SRB; 10 µM, 48 h).
`COC(=O)C1=C(C)Oc2cc(OC)ccc2C1C(C(C)=O)C(=O)OC` (stereo not shown): “mean lipid content” 0.719 OD492 (3T3-L1 preadipocytes; adipogenesis, Oil Red O staining; IC20, 14 days).
With `O=C(N1CCCC1)n1cc(-c2ccc(-c3ccccc3)cc2)nn1` the SILAC ratio was 1.26 (mouse T cells; N-terminal labelling proteomics, measured: CCDC97 N-terminal peptides; 0.001 µM, 6 h; baseline: DMSO).
`Cn1ncc2cc(-c3cncc(Cl)c3N3CCC4(CCNC4=O)CC3)ccc21`: “fold change in expression” 1.14 (LS174T; microarray, measured: AGT; concentration not given, 4 h; baseline: untreated cells).
For `C=CC(=O)Nc1cc(Nc2nccc(-c3c(-c4cccc(C(F)(F)F)c4)n(C)c4ccccc34)n2)c(OC)cc1N(C)CCN(C)C`, the inhibition was 66% (NCI-H1975; cell growth or viability, MTT; 0.5 µM, 72 h).
For `CN1CCCNC(=O)c2cccc(c2)C(=O)NCCCN(C)CCCNc2cccc3c2C(=O)c2cccc(c2C3=O)NCCC1`, “log2 fold change” read -0.909 (SAS; RNA-Seq, measured: RBM39 mRNA; 1 µM, 6 h; baseline: untreated cells).
Under “mean growth percent”, `O=C(C[Se]C(=O)c1cc2ccccc2[nH]1)Nc1cccc(C(F)(F)F)c1` is recorded as -90.6% (NCI60 CNS subpanel; cell growth; 10 µM, 48 h, one-dose).
With `CC(C)c1ccc(N(C)c2ccc3c(c2)OCC[C@H]3CNc2cnccc2C(=O)O)cc1` the IC50 was ≥ 10000 nM (SNU-886; cell growth or viability, ATP luminescence; 7 days).

For quick reference, copied from above:
`O=C(C[Se]C(=O)c1ccccc1Nc1cccc(C(F)(F)F)c1)Nc1cccc(C(F)(F)F)c1` gave a GI50 of 1690 nM (NCI60 leukaemia subpanel; NCI60 five-dose screen).
For `COc1ccc(NC(=O)c2c(Nc3ccccc3)sc(C(=O)N/N=C/c3ccc(OC)c(OC)c3)c2NC(C)=O)cc1`, the viability was 53.2% (HepG2; cell growth or viability, SRB; 10 µM, 48 h).
`COc1ccccc1-c1ccncc1C(=O)Nc1nnc(OCc2ccc(Cl)cc2)s1` has a colony count of 68.5 and 79 and 80.5 (DLD-1 parental; 0.5 µM, mean of replicates).
`COC(=O)C1=C(C)Oc2cc(OC)ccc2C1C(C(C)=O)C(=O)OC` (stereo not shown): “mean lipid content” 0.719 OD492 (3T3-L1 preadipocytes; adipogenesis, Oil Red O staining; IC20, 14 days).
Under “mean growth percent”, `COc1ccc2c(c1)c(CC(=O)[Se]CC(=O)Nc1cccc(C(F)(F)F)c1)c(C)n2C(=O)c1ccc(Cl)cc1` is recorded as -87% (NCI60 melanoma subpanel; cell growth; 10 µM, 48 h, one-dose).
`Cc1ncsc1-c1ccc(C(C)NC(=O)C2CC(O)CN2C(=O)C(NC(=O)CCCCCCCCCCN2CCCC(Nc3ncc(Cl)c(Nc4ccccc4S(=O)(=O)C(C)C)n3)C2)C(C)(C)C)cc1` (stereo not shown): “log2 fold change” -1.77 (22Rv1; RNA-seq, measured: PAPOLG mRNA; concentration not given; baseline: DMSO).
